{"data": "Experimental data of several laboratories", "Tumor necrosis factor receptor superfamily member 9/Nectin-4": "Tumor necrosis factor receptor superfamily member 9/Nectin-4 (Homo sapiens, UniProt Q07011+Q96NY8)", "note": "Each line is one published result; not all experiments were run side by side. “And” joins repeats or separate records; there may be more than shown. ± marks the error that the study gave.", "UniProt Q07011, sequence (whole entry, looked up)": "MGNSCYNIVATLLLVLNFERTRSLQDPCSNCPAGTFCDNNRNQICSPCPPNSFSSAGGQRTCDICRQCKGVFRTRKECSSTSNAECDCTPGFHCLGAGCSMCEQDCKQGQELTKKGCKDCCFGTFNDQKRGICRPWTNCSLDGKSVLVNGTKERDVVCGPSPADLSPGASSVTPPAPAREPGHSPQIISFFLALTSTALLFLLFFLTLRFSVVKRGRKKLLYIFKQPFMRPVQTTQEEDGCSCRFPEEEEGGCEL", "UniProt P51575, sequence (whole entry, unmodified, looked up)": "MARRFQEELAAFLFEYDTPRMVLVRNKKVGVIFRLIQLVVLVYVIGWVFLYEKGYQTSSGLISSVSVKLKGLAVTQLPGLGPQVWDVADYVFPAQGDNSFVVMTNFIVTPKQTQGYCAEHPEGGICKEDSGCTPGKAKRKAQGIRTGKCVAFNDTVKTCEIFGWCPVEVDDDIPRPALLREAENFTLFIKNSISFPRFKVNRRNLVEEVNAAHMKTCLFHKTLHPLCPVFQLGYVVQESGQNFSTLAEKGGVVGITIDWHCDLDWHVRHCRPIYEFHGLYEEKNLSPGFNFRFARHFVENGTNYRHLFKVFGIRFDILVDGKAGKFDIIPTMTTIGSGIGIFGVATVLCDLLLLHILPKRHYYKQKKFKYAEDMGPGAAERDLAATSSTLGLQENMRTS", "UniProt Q96NY8, sequence (whole entry, looked up)": "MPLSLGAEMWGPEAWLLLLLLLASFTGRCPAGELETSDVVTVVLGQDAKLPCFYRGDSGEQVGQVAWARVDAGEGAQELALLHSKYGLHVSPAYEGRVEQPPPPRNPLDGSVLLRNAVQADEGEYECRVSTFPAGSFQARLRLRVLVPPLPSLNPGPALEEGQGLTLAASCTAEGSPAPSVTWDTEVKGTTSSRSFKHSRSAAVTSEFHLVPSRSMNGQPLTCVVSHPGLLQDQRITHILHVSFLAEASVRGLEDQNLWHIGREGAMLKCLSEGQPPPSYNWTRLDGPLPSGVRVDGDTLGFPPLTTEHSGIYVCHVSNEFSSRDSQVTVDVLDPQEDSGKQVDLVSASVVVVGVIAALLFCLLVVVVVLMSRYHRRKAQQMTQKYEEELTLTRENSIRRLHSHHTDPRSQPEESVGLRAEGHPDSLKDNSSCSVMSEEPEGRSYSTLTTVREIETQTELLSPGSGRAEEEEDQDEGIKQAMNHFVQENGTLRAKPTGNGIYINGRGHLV", "UniProt P0A8T7, sequence (whole entry, looked up)": "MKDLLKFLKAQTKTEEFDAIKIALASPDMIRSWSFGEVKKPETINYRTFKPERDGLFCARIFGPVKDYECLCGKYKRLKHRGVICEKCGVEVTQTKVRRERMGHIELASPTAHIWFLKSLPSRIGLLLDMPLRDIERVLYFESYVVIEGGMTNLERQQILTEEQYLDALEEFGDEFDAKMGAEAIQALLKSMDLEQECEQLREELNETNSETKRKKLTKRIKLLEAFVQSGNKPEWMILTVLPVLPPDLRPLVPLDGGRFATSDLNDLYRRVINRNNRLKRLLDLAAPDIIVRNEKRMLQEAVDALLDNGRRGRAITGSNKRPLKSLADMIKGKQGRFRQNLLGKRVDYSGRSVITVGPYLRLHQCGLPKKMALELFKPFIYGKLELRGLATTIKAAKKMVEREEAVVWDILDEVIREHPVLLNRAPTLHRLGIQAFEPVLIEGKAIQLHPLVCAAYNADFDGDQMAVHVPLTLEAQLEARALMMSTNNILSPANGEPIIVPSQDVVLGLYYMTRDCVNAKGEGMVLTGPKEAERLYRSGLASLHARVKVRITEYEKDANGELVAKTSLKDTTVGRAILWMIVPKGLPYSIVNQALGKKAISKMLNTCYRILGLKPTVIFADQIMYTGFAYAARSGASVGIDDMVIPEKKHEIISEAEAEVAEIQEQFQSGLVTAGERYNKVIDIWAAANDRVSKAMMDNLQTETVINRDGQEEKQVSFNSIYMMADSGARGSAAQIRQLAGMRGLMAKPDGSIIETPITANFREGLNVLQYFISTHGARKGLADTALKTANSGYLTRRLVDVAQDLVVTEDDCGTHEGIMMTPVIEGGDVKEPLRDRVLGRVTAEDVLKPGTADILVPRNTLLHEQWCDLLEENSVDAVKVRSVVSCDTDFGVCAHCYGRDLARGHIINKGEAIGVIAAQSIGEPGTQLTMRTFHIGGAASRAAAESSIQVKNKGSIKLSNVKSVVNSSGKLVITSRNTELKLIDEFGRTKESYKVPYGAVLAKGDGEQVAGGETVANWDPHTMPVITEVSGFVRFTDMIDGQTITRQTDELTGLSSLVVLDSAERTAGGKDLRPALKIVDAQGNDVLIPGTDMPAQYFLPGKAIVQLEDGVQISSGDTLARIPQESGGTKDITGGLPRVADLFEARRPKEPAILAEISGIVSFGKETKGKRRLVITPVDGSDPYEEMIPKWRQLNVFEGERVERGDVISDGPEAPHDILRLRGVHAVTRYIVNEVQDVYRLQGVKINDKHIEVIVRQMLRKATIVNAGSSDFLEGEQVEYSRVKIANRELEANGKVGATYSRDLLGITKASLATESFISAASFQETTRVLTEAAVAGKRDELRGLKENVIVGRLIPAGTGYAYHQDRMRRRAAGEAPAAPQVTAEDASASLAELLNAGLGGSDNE", "UniProt Q9UQD0, sequence (whole entry, looked up)": "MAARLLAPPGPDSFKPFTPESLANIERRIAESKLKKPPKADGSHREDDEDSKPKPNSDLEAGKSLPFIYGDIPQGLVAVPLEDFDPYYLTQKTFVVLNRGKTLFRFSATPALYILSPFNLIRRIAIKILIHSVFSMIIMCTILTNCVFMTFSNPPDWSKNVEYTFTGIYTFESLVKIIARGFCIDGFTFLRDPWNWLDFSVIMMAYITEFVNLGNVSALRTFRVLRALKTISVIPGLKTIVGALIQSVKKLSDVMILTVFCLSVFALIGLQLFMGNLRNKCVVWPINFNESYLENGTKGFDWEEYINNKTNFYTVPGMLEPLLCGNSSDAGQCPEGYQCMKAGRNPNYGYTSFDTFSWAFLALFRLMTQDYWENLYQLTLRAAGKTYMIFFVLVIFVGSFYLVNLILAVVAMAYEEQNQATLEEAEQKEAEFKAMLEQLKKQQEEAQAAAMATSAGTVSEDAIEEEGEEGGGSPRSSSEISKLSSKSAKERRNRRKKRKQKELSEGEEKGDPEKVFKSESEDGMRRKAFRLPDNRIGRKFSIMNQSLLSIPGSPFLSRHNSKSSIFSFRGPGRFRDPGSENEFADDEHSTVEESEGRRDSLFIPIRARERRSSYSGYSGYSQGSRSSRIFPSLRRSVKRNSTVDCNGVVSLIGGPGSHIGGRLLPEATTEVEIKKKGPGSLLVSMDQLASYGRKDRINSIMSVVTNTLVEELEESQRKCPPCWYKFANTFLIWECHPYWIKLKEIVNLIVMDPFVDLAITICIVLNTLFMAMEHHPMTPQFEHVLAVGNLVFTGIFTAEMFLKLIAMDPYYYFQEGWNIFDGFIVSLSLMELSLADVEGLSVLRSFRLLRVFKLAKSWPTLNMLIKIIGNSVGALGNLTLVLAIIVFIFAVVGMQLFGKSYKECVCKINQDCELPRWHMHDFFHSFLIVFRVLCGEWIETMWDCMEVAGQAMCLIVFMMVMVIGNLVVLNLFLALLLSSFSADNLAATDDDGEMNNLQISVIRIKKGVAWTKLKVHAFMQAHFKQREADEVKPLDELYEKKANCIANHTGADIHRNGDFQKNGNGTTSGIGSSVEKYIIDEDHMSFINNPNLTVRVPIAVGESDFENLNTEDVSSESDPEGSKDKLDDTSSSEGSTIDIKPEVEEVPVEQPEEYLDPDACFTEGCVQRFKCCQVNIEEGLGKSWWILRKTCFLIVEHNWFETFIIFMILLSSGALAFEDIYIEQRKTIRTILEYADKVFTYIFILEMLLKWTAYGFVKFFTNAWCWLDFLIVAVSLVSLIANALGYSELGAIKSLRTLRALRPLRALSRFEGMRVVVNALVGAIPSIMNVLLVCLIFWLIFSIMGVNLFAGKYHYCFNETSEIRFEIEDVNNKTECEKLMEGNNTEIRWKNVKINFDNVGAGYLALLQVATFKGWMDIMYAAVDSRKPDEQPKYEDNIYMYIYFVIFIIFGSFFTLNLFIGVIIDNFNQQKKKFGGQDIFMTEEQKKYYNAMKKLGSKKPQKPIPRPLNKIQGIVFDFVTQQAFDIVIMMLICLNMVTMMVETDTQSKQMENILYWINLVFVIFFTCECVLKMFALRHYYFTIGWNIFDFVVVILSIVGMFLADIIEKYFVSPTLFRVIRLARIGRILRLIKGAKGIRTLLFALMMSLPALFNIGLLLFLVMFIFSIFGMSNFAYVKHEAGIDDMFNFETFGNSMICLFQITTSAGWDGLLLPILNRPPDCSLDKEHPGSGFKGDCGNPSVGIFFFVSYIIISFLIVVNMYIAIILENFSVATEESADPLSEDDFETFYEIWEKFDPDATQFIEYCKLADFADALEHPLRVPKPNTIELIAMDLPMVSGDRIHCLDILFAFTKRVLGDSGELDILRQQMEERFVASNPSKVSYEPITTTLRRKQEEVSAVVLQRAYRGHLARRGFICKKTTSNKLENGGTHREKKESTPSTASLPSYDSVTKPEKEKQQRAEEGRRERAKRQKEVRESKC", "UniProt Q96P68, sequence (whole entry, looked up)": "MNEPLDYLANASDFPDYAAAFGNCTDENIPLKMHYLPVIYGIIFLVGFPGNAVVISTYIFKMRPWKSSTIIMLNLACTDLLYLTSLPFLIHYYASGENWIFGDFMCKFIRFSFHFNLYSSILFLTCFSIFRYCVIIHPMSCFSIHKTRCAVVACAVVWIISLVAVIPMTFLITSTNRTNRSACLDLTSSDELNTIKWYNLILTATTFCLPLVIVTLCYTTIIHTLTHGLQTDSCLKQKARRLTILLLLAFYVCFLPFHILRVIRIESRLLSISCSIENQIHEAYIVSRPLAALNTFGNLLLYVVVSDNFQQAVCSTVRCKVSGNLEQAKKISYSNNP"}
{"Compound": "C=CC(=O)N1CCC(COCC(=O)N2CCN(c3nc(-c4cnc(N)nc4C(F)F)nc(N4CCOC[C@@H]4C)n3)CC2)CC1", "target": "Non-receptor tyrosine-protein kinase TYK2, JH2 pseudokinase domain (TYK2, Homo sapiens, UniProt P29597)", "test": "KINOMEscan", "setting": "1 µM", "how to read": "reference: DMSO control", "quantity": "remaining binding", "value": "65%"}
{"Compound": "CCN1CCC[C@H]1CNC(=O)c1c(O)c(Cl)cc(Cl)c1OC", "target": "OXGR1 (Homo sapiens, UniProt Q96P68)", "test": "β-arrestin recruitment, TANGO luminescence", "setting": "concentration not given", "how to read": "reference: basal luminescence", "quantity": "log2 fold change", "value": 0.427}
{"Compound": "Cc1ccc(S(=O)(=O)Oc2ccccc2NC(=O)c2ccc3ncccc3c2)cc1", "target": "P2X purinoceptor 2 (P2RX2, Homo sapiens, UniProt Q9UBL9)", "test": "calcium mobilization", "test system": "MCF7 stably transfected", "setting": "100 µM, together with: ATP 100 µM", "quantity": "fluorescence increase", "value": "61.6 ± 1.11%"}
{"Compound": "O=C(O)c1ccc(Nc2ncc3c(n2)-c2ccc(Cl)cc2C(c2c(F)cccc2F)=NC3)cc1", "target": "human Abl(T315I)", "test": "kinase activity", "setting": "1 µM", "quantity": "remaining activity", "value": "74%"}
{"Compound": "O=c1ccn([C@@H]2O[C@H](COP(=O)(O)OP(=O)(O)OP(=O)(O)O)C[C@H]2O)c(=O)[nH]1", "target": "DNA-directed RNA polymerase subunit beta' / DNA-directed RNA polymerase subunit beta (rpoC/rpoB, Escherichia coli, UniProt P0A8T7+P0A8V2)", "test": "RNA extension, denaturing gel", "test system": "Escherichia coli, elongation complex, 6-MI template", "setting": "5 µM, 10 min, 25 °C", "quantity": "incorporation efficiency", "value": "89%"}
{"Compound": "Nc1nc2c(ncn2[C@@H]2O[C@H](COP(=O)(O)O)[C@@H](O)[C@H]2O)c(=O)[nH]1", "target": "GUK1 (Homo sapiens, UniProt Q16774)", "test": "substrate, NADH-coupled", "setting": "NaCl 10 mM, enzyme 2 nM", "quantity": "Vmax", "value": "0.0947 µM/s"}
{"Compound": "CCCC[C@@H]1NC(=O)[C@H](Cc2ccc(O)cc2)NC(=O)[C@@H]2CCCN2C(=O)[C@H](CCC(=O)O)NC(=O)[C@H](C)NC(=O)[C@H](Cc2ccccc2)NC(=O)[C@@H]2CSCCC(=O)N3CN(CN(C3)C(=O)CCSC[C@H](NC(C)=O)C(=O)N[C@@H](CC(C)(C)C)C(=O)N3CCC[C@H]3C(=O)N[C@@H](CCC(=O)O)C(=O)N[C@H](CCCCNC(=O)CCc3cn(CCOCCOCCOCCOCCOCCC(=O)N[C@H]4CSCCC(=O)N5CN6CN(C5)C(=O)CCSC[C@H](NC(=O)[C@@H](CC(=O)O)NC(=O)[C@H](Cc5cccc7ccccc57)NC(=O)[C@@H]5CCCN5C4=O)C(=O)N[C@@H](CCSC)C(=O)N[C@@H](CCCCNC(=N)N)C(=O)N[C@@H](CC(=O)O)C(=O)N[C@@H](Cc4c[nH]c5ccccc45)C(=O)N[C@@H](CO)C(=O)N[C@@H]([C@@H](C)O)C(=O)N4CCC[C@H]4C(=O)N4C[C@H](O)C[C@H]4C(=O)N[C@@H](Cc4c[nH]c5ccccc45)C(=O)N[C@H](C(N)=O)CSCCC6=O)nn3)C(=O)N3CCC[C@H]3C(=O)N[C@@H](Cc3ccc(O)cc3)C(=O)N2)C(=O)CCSC[C@@H](C(N)=O)NC1=O", "target": "Tumor necrosis factor receptor superfamily member 9/Nectin-4", "test": "reporter gene, agonist", "test system": "HT-1376 coculture with reporter cells", "how to read": "reference: background", "quantity": "Emax", "value": "2.2 fold"}
{"Compound": "Nc1nnc(-c2ccccc2O)cc1N1CCN(Cc2ccc(OCCOCCNc3cccc4c3C(=O)N(C3CCC(=O)NC3=O)C4=O)c(F)c2)CC1 (stereo not drawn)", "target": "Protein polybromo-1 (PBRM1, Homo sapiens, UniProt Q86U86)", "test": "TMT proteomics", "test system": "SMARCA4 wild-type cells", "setting": "1 µM, 96 h", "quantity": "protein level", "value": "no effect"}
{"Compound": "Nc1ncnc2c1ncn2[C@@H]1O[C@H](COP(=O)(O)CP(=O)(O)OP(=O)(O)O)[C@@H](O)[C@H]1O", "target": "P2X purinoceptor 1 (P2RX1, Homo sapiens, UniProt P51575, F188L)", "test": "saturation binding", "test system": "HEK293", "setting": "13 nM", "quantity": "specific binding", "value": "1290 CCPM and 1540 CCPM"}
{"Compound": "CCCC[C@@H]1NC(=O)[C@H](Cc2ccc(O)cc2)NC(=O)[C@H](C)N(C)C(=O)[C@H](CC(=O)O)NC(=O)[C@H](C)NC(=O)[C@H](Cc2ccccc2)NC(=O)[C@@H]2CSCCC(=O)N3CN(CN(C3)C(=O)CCSC[C@H](NC(C)=O)C(=O)N[C@@H](CC(C)(C)C)C(=O)N3CCC[C@H]3C(=O)N[C@@H](CCC(=O)O)C(=O)N[C@H](CCCCNC(=O)CCc3cn(CCOCCOCCOCCOCCOCCC(=O)N[C@H]4CSCCC(=O)N5CN6CN(C5)C(=O)CCSC[C@H](NC(=O)[C@@H](CC(=O)O)NC(=O)[C@H](Cc5cccc7ccccc57)NC(=O)[C@@H]5CCCN5C4=O)C(=O)N[C@@H](CCSC)C(=O)N[C@@H](CCCCNC(=N)N)C(=O)N[C@@H](CC(=O)O)C(=O)N[C@@H](Cc4c[nH]c5ccccc45)C(=O)N[C@@H](CO)C(=O)N[C@@H]([C@@H](C)O)C(=O)N4CCC[C@H]4C(=O)N4C[C@H](O)C[C@H]4C(=O)N[C@@H](Cc4c[nH]c5ccccc45)C(=O)N[C@H](C(N)=O)CSCCC6=O)nn3)C(=O)N3CCC[C@H]3C(=O)N[C@@H](Cc3ccc(O)cc3)C(=O)N2)C(=O)CCSC[C@@H](C(N)=O)NC1=O", "target": "Tumor necrosis factor receptor superfamily member 9/Nectin-4", "test": "reporter gene, agonist", "test system": "HT-1376 coculture with reporter cells", "how to read": "reference: background", "quantity": "Emax", "value": "31 fold"}
{"Compound": "CC(=O)Nc1ccc(S(=O)(=O)N2CCN(CC(O)COc3ccc4ccccc4c3)CC2)cc1 (stereo not drawn)", "target": "Sodium channel protein type 8 subunit alpha, C-terminal domain (SCN8A, Homo sapiens, UniProt Q9UQD0)", "test": "binder, SPR", "quantity": "kon", "value": "8770 ± 56 M⁻¹ s⁻¹"}
{"Compound": "O=C(CCCc1ccccc1)C(=O)NCCc1ccc(Oc2ccc(C(F)(F)F)cn2)cc1", "target": "Prolyl endopeptidase (Mus musculus, UniProt Q9QUR6)", "test": "inhibitor, measured: PPCE", "test system": "mouse, WAT cytosol proteome", "setting": "10 µM", "how to read": "reference: DMSO, lower = stronger inhibition", "quantity": "probe-enriched protein abundance", "value": "268000 a.u."}
